Experimental data pooled from the literature.
Compare with care: the assays were run in different laboratories.
TMPRSS2: Transmembrane protease serine 2 (TMPRSS2, Homo sapiens, UniProt O15393)
UniProt O15393, sequence (whole entry, looked up): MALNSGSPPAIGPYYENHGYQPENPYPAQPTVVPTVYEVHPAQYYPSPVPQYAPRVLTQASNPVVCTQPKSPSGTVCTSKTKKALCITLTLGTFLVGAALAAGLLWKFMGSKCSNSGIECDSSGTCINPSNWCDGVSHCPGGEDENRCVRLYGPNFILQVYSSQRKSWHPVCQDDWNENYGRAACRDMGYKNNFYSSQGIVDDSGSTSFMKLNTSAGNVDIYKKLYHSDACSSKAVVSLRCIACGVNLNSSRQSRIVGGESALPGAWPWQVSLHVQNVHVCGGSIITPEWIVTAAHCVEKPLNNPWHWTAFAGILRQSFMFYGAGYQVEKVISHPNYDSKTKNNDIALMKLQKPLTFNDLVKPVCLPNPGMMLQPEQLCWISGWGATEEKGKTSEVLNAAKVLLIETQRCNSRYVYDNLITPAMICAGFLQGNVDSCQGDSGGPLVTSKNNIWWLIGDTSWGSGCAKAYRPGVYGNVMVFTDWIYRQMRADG
UniProt P0C1S8, sequence (whole entry, looked up): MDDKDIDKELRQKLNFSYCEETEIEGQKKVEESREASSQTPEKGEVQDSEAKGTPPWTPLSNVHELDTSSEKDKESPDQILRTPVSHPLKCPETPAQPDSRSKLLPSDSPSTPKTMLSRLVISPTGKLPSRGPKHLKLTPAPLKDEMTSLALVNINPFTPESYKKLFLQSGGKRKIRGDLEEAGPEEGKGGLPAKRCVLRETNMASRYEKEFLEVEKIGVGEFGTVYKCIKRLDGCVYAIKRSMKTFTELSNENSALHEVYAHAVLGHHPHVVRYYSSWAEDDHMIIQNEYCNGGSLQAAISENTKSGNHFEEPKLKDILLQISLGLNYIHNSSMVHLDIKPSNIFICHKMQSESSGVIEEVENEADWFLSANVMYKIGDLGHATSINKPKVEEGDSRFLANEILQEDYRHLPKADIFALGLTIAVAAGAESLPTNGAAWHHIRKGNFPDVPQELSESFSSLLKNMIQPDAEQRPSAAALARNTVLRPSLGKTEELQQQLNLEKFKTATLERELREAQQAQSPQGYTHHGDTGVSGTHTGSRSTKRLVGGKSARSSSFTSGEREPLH
UniProt P08581, sequence (whole entry, looked up): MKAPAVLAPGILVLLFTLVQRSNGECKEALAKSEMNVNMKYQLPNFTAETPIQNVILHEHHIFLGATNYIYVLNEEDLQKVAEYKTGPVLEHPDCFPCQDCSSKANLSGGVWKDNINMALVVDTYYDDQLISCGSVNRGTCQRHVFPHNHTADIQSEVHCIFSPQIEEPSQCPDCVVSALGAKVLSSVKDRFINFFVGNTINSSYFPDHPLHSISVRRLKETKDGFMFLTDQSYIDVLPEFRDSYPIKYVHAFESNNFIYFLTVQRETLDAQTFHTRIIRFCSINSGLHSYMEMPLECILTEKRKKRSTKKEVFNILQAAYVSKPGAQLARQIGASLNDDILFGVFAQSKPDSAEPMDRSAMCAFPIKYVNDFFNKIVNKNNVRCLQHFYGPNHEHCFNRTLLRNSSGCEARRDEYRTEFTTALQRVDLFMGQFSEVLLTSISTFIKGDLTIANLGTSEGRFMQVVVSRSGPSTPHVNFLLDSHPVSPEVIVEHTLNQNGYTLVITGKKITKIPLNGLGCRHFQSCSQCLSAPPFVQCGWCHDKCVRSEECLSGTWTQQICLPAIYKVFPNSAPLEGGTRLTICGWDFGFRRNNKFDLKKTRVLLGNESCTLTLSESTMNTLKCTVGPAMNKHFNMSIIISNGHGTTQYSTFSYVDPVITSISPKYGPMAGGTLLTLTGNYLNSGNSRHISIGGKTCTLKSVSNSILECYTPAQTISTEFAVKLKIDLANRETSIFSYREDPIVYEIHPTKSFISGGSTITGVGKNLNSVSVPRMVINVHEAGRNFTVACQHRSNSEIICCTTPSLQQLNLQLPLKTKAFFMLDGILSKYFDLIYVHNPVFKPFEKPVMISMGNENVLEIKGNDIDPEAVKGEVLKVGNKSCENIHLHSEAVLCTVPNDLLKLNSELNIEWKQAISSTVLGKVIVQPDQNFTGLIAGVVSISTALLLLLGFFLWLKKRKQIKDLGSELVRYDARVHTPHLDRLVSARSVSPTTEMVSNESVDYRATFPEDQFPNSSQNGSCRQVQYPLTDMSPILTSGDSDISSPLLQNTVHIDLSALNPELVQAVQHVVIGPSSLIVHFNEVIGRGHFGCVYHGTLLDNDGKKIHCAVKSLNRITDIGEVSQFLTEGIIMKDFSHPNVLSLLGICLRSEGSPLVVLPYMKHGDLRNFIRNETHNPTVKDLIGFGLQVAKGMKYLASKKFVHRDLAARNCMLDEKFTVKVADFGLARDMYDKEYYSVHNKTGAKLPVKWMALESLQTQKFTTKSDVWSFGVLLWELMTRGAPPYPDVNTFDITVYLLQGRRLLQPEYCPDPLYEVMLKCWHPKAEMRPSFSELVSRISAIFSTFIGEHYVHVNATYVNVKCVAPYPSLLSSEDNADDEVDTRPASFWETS
UniProt P10721, sequence (whole entry, looked up): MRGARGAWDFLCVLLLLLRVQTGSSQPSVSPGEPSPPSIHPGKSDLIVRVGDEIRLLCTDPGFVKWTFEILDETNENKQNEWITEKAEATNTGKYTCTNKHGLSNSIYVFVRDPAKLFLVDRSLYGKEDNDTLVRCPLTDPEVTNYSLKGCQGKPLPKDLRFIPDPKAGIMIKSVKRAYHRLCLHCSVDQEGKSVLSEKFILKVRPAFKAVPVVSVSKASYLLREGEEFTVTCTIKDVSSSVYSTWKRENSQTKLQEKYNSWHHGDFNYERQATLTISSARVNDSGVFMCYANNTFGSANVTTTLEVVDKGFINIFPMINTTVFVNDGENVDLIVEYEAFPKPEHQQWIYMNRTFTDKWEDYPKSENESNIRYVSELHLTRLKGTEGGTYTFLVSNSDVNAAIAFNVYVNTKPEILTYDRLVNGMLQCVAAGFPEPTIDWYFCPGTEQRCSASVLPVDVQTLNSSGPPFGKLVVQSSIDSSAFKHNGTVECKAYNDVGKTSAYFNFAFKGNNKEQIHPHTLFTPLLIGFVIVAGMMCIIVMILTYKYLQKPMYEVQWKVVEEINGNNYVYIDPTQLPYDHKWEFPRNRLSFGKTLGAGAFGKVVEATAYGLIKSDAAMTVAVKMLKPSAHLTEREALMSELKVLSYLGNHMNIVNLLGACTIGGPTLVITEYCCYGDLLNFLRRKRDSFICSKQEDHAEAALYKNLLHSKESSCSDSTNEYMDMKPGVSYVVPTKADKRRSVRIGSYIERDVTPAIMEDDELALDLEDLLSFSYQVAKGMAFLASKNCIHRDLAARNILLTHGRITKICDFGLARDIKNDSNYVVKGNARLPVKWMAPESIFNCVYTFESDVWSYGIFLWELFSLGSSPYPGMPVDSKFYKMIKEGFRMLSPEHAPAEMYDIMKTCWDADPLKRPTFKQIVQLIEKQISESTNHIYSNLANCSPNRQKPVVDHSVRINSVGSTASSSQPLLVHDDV
UniProt P25103, sequence (whole entry, looked up): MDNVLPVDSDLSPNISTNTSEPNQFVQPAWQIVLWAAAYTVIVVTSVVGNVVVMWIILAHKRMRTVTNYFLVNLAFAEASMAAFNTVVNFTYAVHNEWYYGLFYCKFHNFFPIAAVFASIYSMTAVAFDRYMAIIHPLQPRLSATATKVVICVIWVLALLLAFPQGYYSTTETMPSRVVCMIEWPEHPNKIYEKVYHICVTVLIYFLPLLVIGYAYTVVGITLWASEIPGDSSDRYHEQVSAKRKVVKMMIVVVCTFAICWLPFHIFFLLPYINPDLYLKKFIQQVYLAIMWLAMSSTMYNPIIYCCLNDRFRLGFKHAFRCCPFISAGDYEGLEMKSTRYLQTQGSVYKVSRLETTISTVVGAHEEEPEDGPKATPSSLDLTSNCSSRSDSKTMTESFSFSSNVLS
UniProt O14730, sequence (whole entry, looked up): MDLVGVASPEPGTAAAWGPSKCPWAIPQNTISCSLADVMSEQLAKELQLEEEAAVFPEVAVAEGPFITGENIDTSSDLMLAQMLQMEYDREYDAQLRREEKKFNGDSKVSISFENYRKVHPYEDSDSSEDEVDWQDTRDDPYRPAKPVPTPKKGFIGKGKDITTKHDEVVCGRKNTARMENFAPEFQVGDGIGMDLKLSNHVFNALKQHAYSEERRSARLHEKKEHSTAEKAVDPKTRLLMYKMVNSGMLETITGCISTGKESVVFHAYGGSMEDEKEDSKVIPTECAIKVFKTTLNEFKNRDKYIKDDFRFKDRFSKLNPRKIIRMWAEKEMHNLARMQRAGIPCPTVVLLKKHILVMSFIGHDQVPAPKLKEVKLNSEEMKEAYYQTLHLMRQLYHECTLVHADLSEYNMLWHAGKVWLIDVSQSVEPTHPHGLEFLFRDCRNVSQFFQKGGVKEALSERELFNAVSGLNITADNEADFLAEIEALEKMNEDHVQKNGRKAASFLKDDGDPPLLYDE

The inhibition of `C#Cc1n[nH]c2c(-c3cn([C@@H](C)c4ccccn4)c(=O)[nH]c3=O)cc(F)cc12` is reported as -0.4% (KIT (Homo sapiens, UniProt P10721); enzyme activity, inhibitor; 0.1 µM).
`COc1ccccc1Cn1ccnc1SCC(=O)Nc1cccc(C(F)(F)F)c1` has an IC50 of 763 nM (PFF0160c (Plasmodium falciparum, UniProt Q08210); enzyme activity, inhibitor, absorbance).
`N=C(N)NCCC[C@H](NC(=O)[C@H](Cc1ccccc1)NC(=O)[C@H](CCC(N)=O)NC(=O)CCc1ccccc1)C(=O)c1nc2ccccc2s1`: “activity vs control” 87% (TMPRSS2; enzyme activity, inhibitor; 1 nM).
The inhibition of `CC(C)CC(=O)OC[C@H]1O[C@@](C#N)(c2ccc3c(N)ncnn23)[C@H](O)[C@@H]1O` is reported as 32% (TACR1 (Homo sapiens, UniProt P25103); cell-free assay; 20 µM).
`N=C(N)NCCC[C@H](NC(=O)[C@H](CCCCN)NC(=O)[C@H](Cc1cscn1)NC(=O)CCc1ccccc1)C(=O)c1nc2ccccc2s1` — result for “activity vs control”: 89% (TMPRSS2; enzyme activity, inhibitor; 1 nM).
With `COc1ncccc1-c1cnn2ccc(N3CCN(C(=O)OC(C)C)CC3)nc12` the remaining binding was 6.6% (RIOK3 (Homo sapiens, UniProt O14730); binding, competition with immobilised ligand; 1 µM).
With `[2H]c1c([2H])c([C@]2([2H])CCCN2C(=O)C(C)(C)Oc2ccc3cn[nH]c3c2)c([2H])c([2H])c1C([2H])([2H])[2H]` the remaining binding was 75% (WEE2 (Homo sapiens, UniProt P0C1S8); binding, competition with immobilised ligand; 1 µM).
With `COC(=O)c1cc(-c2cccc(NC(=O)Nc3cccc(Cl)c3)c2)on1` the MIC was greater than 64 µg/mL (Pseudomonas aeruginosa; microbial growth, broth dilution; ATCC27853).
`Cc1c(C(=O)Nc2cc(Cl)cc(Cl)c2)cccc1[N+](=O)[O-]` gave an IC50 of greater than 10000 nM (PFF0160c (Plasmodium falciparum, UniProt Q08210, E182D); enzyme activity, inhibitor, absorbance).
`CC(C)[C@H](NC(=O)[C@H](Cc1ccc(O)cc1)NC(=O)CC12C[C@H]3C[C@@H](C1)C[C@@H](C2)C3)C(=O)N[C@@H](CCCNC(=N)N)C(=O)c1nc2ccccc2s1`: “activity vs control” 99% (TMPRSS2; enzyme activity, inhibitor; 1 nM).
The remaining binding of `Nc1ncc(-c2nc(N3CCOCC3)nc(N3CCOCC3)n2)c(C(F)F)n1` is reported as 63% (MET (Homo sapiens, UniProt P08581); cell-free assay, competition with immobilised ligand; 10 µM).
For `Cc1nn(C)cc1-c1nc2c(N3CCN(Cc4ccc(Cl)cc4)CC3)c(Cl)cnc2[nH]1`, the remaining binding was 100% (EGFR (Homo sapiens, UniProt P00533, G719S); binding, competition with immobilised ligand; 1 µM).

A few entries again:
The inhibition of `C#Cc1n[nH]c2c(-c3cn([C@@H](C)c4ccccn4)c(=O)[nH]c3=O)cc(F)cc12` is reported as -0.4% (KIT (Homo sapiens, UniProt P10721); enzyme activity, inhibitor; 0.1 µM).
